Experimental data of several laboratories.
Numbered parts are unrelated; each lists some results of a single study.

Series 1
Target: Microphthalmia-associated transcription factor, full length (MITF, Homo sapiens, UniProt O75030-10, residues 1-413)
Technique: protein-binding microarray
Molecule type: double-stranded DNA, one strand shown
Matrix: in vitro
Concentration: not given
Notes: k-mer, scored over probes, only values ≥0.25
Direction: higher = stronger binding
Residues (chain): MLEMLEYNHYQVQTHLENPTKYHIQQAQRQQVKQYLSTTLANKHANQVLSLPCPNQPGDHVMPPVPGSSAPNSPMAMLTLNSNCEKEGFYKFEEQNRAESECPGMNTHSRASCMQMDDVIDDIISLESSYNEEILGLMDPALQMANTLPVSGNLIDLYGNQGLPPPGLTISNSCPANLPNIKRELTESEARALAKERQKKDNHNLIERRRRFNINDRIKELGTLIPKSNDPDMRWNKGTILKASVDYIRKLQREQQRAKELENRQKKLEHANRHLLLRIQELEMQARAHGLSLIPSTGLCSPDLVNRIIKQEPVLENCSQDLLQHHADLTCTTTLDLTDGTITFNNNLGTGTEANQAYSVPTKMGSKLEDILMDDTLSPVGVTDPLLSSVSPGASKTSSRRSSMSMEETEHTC
Strand | E-score
AATCATG | 0.301
CTCACGC | 0.301
ATGACCA | 0.351
AGGTCAC | 0.304
CAGCTGA | 0.264
ATGATGA | 0.292

Series 2
Target: Sal-like protein 4, full length isoform B (SALL4, Homo sapiens, UniProt Q9UJQ4-2, residues 1-616)
Technique: universal PBM
Molecule type: double-stranded DNA, one strand shown
Matrix: in vitro
Concentration: not given
Notes: 8-mer, flanks averaged, mean of replicates
Direction: higher = stronger binding
Target sequence (chain): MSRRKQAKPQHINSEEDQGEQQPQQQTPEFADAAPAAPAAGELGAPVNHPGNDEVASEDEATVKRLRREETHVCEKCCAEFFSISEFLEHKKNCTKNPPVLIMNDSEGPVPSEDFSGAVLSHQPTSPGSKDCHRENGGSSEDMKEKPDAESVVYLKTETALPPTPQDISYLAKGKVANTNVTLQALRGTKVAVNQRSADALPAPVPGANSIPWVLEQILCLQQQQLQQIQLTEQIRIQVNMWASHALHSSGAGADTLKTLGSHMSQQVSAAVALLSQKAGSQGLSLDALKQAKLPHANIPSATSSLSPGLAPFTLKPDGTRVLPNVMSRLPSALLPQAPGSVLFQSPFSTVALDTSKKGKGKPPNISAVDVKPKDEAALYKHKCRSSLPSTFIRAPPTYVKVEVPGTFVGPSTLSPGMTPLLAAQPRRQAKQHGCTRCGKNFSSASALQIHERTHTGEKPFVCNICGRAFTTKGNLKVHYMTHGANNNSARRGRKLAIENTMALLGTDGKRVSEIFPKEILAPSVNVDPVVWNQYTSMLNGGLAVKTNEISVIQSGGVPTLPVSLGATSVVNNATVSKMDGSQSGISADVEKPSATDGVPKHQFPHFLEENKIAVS
Strand | E-score
CGGTTAAA | 0.0656
AGTTCTTA | 0.108
CAGTGATC | -0.12
AAAGACTA | 0.0353

Series 3
Target: Histone acetyltransferase KAT6A, winged helix 2, GST fusion (KAT6A, Homo sapiens, UniProt Q92794, residues 85-181)
Technique: protein binding microarray
Molecule type: double-stranded DNA, one strand shown
Matrix: in vitro
Concentration: not given
Notes: 8-mer, flanks averaged, mean of 2 arrays, mostly near background
Baseline: not given
Direction: higher = stronger binding
Residues (chain): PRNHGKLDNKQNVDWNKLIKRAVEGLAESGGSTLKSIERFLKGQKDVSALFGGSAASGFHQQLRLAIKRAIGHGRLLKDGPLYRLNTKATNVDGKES
Strand | E-score
AGATCAAT | 0.0188
AATCATTG | -0.0994
AGTAAAGA | -0.0856
AGCTGGTC | 0.142
CTACCGAC | -0.00119
GACGAAGC | -0.00291
TGTCACAA | -0.034

Mixed results
Substance | target | assay | test system | conditions | how to read | endpoint | value
PhoQ, residues 284 288 289 292 302 303 NLALSC | PhoP, residues 12 14 15 18 19 YHFSH (Escherichia coli, UniProt P23836) | Sort-seq, measured: YFP reporter | E. coli | PhoQ-PhoP variant library, added: 10 µM Mg2+ | baseline: high Mg2+ state, higher = stronger signaling | fold induction | 2.18

Excerpt of the above (mixed results):
Substance | target | assay | test system | conditions | how to read | endpoint | value
PhoQ, residues 284 288 289 292 302 303 NLALSC | PhoP, residues 12 14 15 18 19 YHFSH (Escherichia coli, UniProt P23836) | Sort-seq, measured: YFP reporter | E. coli | PhoQ-PhoP variant library, added: 10 µM Mg2+ | baseline: high Mg2+ state, higher = stronger signaling | fold induction | 2.18
